Results from different studies.
Lines come from different studies, so protocols differ.
Sequence of UniProt Q01959 (whole entry, looked up): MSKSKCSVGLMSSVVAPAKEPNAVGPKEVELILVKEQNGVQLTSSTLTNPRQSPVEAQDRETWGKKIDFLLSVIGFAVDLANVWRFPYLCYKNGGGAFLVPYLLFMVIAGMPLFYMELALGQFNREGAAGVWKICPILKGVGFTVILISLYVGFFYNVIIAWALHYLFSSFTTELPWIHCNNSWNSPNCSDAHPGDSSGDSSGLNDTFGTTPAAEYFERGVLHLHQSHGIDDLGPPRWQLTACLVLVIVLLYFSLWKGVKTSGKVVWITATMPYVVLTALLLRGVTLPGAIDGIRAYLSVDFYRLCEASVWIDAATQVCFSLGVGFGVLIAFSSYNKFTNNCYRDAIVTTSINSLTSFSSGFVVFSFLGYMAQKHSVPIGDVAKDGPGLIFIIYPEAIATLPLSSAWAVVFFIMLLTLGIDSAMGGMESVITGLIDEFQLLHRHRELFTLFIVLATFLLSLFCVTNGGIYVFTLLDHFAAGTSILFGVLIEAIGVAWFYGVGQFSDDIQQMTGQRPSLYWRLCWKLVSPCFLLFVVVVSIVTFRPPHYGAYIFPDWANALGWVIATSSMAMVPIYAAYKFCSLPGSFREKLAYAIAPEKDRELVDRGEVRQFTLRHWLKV
Sequence of UniProt Q8NER1 (whole entry, looked up): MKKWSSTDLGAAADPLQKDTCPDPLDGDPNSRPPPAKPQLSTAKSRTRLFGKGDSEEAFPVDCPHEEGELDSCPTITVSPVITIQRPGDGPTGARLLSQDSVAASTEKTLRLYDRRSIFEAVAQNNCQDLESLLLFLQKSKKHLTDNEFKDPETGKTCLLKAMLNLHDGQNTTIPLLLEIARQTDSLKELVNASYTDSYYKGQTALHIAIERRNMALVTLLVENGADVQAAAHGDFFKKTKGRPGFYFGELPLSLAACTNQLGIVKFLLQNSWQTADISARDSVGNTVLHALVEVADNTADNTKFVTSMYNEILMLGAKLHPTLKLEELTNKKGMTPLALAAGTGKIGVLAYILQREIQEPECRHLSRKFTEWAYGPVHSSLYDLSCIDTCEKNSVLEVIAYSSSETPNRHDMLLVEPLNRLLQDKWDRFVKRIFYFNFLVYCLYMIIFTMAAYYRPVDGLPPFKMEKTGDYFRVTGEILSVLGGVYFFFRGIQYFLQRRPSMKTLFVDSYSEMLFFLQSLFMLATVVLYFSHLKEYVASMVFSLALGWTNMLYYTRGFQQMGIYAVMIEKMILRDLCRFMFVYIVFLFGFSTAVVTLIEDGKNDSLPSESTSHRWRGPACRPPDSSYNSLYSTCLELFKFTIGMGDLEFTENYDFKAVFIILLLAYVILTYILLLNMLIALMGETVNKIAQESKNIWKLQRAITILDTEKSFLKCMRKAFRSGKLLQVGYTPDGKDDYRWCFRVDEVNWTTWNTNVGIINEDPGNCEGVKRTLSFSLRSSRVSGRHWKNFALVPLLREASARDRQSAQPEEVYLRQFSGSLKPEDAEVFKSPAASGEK
Sequence of UniProt P62139 (whole entry, looked up): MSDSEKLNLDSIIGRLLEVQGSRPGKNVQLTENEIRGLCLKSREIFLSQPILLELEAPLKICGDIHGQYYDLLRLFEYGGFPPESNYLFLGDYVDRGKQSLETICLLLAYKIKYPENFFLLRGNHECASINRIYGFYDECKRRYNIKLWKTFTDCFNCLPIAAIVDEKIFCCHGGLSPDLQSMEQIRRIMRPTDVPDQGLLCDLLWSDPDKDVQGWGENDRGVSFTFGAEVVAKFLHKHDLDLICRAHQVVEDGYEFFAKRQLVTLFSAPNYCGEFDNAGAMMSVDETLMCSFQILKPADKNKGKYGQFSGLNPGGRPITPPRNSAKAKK
Sequence of UniProt Q8WTS6 (whole entry, looked up): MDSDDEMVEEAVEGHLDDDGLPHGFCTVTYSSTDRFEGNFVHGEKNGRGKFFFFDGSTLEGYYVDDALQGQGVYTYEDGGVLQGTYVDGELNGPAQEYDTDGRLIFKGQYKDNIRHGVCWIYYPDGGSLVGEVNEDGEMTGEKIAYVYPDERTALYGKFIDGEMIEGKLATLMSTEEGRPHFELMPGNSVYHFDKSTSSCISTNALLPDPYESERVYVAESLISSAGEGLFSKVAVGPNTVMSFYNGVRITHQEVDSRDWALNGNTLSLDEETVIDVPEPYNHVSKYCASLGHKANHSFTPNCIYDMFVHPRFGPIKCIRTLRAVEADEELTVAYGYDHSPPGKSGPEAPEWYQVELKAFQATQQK
Sequence of UniProt P28065 (whole entry, looked up): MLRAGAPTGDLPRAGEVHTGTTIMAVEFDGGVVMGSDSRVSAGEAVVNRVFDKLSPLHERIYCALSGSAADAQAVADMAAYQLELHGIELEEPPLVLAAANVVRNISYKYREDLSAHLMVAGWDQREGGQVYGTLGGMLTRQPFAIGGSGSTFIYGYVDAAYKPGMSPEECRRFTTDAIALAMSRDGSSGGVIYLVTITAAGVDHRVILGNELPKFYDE
Sequence of UniProt Q09470 (whole entry, looked up): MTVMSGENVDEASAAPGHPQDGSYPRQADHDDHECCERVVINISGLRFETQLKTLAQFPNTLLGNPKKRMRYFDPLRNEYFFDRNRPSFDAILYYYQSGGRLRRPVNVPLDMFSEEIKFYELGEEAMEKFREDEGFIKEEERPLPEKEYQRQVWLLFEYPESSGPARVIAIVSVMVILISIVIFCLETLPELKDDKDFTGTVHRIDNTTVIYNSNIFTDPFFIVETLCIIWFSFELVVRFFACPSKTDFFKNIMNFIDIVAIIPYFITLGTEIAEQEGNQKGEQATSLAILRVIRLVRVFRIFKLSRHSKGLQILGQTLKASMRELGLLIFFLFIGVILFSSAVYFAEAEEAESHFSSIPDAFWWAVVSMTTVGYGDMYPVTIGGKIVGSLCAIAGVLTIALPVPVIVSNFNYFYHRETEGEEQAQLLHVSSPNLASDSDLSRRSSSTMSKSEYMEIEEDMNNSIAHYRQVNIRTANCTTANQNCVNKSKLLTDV
Sequence of UniProt P23975 (whole entry, looked up): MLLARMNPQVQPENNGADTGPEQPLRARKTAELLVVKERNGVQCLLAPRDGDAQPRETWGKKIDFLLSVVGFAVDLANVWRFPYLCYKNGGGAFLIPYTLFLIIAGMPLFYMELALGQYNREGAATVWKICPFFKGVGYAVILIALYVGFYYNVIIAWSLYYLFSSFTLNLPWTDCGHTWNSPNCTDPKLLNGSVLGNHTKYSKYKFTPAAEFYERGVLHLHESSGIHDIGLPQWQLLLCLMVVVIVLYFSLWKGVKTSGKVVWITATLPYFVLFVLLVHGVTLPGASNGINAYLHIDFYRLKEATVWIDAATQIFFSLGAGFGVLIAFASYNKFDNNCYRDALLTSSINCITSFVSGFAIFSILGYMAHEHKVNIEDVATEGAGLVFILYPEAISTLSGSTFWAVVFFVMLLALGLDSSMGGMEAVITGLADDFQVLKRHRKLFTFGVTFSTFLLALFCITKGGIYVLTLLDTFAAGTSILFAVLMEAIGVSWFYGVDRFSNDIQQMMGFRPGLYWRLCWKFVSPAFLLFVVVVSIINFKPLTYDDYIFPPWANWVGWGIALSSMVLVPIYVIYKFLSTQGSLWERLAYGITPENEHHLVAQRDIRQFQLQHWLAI
Sequence of UniProt Q9HBA0 (whole entry, looked up): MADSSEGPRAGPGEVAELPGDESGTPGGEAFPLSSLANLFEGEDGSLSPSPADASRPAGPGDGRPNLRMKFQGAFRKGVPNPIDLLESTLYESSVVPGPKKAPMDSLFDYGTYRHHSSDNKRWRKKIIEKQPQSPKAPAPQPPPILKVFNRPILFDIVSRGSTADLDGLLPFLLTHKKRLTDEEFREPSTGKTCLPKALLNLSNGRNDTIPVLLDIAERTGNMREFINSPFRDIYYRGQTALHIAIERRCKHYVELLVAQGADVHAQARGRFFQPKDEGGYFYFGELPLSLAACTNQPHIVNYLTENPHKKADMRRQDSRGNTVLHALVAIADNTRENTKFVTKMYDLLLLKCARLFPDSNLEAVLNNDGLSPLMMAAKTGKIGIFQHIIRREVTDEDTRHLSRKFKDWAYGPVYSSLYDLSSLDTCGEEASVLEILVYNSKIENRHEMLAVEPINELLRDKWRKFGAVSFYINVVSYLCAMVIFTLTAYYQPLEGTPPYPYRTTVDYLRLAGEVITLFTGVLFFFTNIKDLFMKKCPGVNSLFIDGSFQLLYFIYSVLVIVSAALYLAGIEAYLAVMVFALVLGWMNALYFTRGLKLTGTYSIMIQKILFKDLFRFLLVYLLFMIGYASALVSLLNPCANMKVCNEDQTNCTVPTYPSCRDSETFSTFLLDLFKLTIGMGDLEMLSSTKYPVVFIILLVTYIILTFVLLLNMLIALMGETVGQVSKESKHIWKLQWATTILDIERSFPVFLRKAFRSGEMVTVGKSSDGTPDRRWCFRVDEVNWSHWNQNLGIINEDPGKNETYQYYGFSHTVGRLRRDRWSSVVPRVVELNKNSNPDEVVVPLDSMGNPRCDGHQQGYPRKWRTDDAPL
Sequence of UniProt Q06609 (whole entry, looked up): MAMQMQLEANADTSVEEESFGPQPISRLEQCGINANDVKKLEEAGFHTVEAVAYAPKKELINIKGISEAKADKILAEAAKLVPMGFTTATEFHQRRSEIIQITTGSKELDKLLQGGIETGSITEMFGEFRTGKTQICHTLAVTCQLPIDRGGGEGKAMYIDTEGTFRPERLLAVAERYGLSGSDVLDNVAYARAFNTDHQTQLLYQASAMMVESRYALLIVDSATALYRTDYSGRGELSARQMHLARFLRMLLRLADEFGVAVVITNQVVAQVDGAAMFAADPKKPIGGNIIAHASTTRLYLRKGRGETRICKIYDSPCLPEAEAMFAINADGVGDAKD

SMILES	target	test	system	setting	IC50 [nM]
[2H]c1c(NS(C)(=O)=O)c([2H])c2c(C(=O)c3ccc(OCCCN(CCCC)CCCC)cc3)c(CCCC)oc2c1[2H]	Voltage-dependent L-type calcium channel subunit alpha-1C, cardiac isoform (CACNA1C, Homo sapiens, UniProt Q13936)	peak calcium current, blocker, whole-cell patch clamp	HEK293FT transfected		1150
C[N+](C)(CC(=O)Nc1cccc(C(F)(F)F)c1)CC(=O)Nc1cccc(C(F)(F)F)c1	Transient receptor potential cation channel subfamily V member 4 (TRPV4, Homo sapiens, UniProt Q9HBA0)	calcium signal, antagonist			145
CC(C)C[C@H]1CN[C@H](C(N)=O)CSSC[C@@H](N)C(=O)N[C@@H](CCC(N)=O)C(=O)N[C@@H](Cc2c[nH]c3ccccc23)C(=O)N[C@@H](C)C(=O)N[C@@H](C(C)C)C(=O)N[C@H](C)C(=O)N[C@@H](Cc2c[nH]cn2)C(=O)N1	Gastrin-releasing peptide receptor (GRPR, Homo sapiens, UniProt P30550)	binding, radioligand displacement	Balb 3T3 or HuTu-80		> 1000
CCCCCCCCCC(=O)OCCN1CCN(c2cc(Nc3ncc(C(=O)Nc4c(C)cccc4Cl)s3)nc(C)n2)CC1	Tyrosine-protein kinase CSK (CSK, Homo sapiens, UniProt P41240)	enzyme activity, inhibitor			3200
N=C(NCCCSCC1OC(n2cnc3c(N)ncnc32)C(O)C1O)NCCCC(N)C(N)=O (centres unmarked)	Histone-lysine N-methyltransferase SETD7 (SETD7, Homo sapiens, UniProt Q8WTS6)	enzyme activity, inhibitor, fluorescence			> 100000
CN(C)c1ccc2c3c(cccc13)C(=O)N(C(CS)C(=O)O)C2=O (centres unmarked)	Metallo-beta-lactamase VIM-2 (VIM-2, Escherichia coli, UniProt Q5U7L7)	enzyme activity, inhibitor		pH 7	690
Cc1cc2c(NC(=O)N[C@@H]3CC(C)(C)Oc4cc(C(F)(F)F)ccc43)c(C)ccc2cn1	Transient receptor potential cation channel subfamily V member 1 (TRPV1, Homo sapiens, UniProt Q8NER1)	calcium signal, antagonist, fluorescence			144
CN(C)CCN(Cc1ccncc1)Cc1c(Cl)cccc1Cl	Sodium-dependent noradrenaline transporter (SLC6A2, Homo sapiens, UniProt P23975)	transporter uptake, inhibitor, radiometric			635
C[C@@H](OC(=O)c1cccc(S(=O)(=O)Nc2ccc3c(c2)OCO3)c1)C(=O)c1c[nH]c2ccccc12	KCNA2/KCNA1 (Homo sapiens, UniProt P16389+Q09470)	potassium current, inhibitor, automated patch clamp	CHO-K1, concatemer expressing		4070
C#CCCNC(=O)[C@@H](NC(=O)N[C@H](C(=O)N[C@H]1/C=C/CCNC(=O)/C=C/[C@H](C(C)C)NC1=O)C(C)C)C(C)C	Proteasome subunit beta type-9 (Homo sapiens, UniProt P28065)	inhibitor		human immunoproteasome, added: Ac-PAL-AMC	170
Oc1cc(O)c2c(c1)O[C@H](c1ccc(O)c(O)c1)[C@@H](O)[C@@H]2c1c(O)cc(O)c2c1O[C@H](c1ccc(O)c(O)c1)[C@H](O)C2	PPO3 (Agaricus bisporus, UniProt C7FF04)	enzyme activity, inhibitor			104000
O=S(=O)(Cc1ccccc1)N1C=Cc2ccccc2C1c1c[nH]c2ccccc12 (centres unmarked)	DNA repair protein RAD51 homolog 1 (RAD51, Homo sapiens, UniProt Q06609)	binding, inhibitor, SPR competition		added: GST-BRC	~110
CN1C[C@@H](c2c[nH]c3cc(Br)ccc23)N(C)C[C@@H]1c1c[nH]c2ccccc12	Serine/threonine-protein phosphatase PP1-alpha catalytic subunit (PPP1CA, Oryctolagus cuniculus, UniProt P62139)	enzyme activity, inhibitor, fluorescence			~10000
O=C(NCCCN1CCC(Cc2ccccc2)CC1)c1ccc2ccccc2c1	Sodium-dependent dopamine transporter (SLC6A3, Homo sapiens, UniProt Q01959)	transporter uptake, inhibitor, radiometric			> 10000
